# Measured values pooled from the literature.
# Compare with care: the assays were run in different laboratories. ± marks the error that the study gave.
SMILES,host,sample,route,dose,time,setting,tissue uptake
Cc1cc(O)cc(C)c1C[C@H](NC(=O)[C@@H]1CCCN1C(=O)[C@H](CCCNC(=N)N)NC(=O)[C@H](CCCNC(=N)N)N(C)C(=O)[C@@H]1CCCN1C(=O)[C@@H](CC(C)C)NC(=O)[C@@H](CC(C)C)NC(=O)[C@@H](CC(C)C)NC(=O)[C@@H](CC(C)C)NC(=O)[C@H](CCCCN)NC(=O)CN1CCN(CC(=O)O)CCN(CC(=O)O)CCN(CC(=O)O)CC1)C(=O)N[C@H](C(=O)N[C@@H](CC(C)C)C(=O)O)C(C)(C)C [lutetium-177 labelled],CF-1 mouse,kidney,iv,370 kBq,24 h,,77.8 ± 10.2 %ID/g
C[C@@H](O)[C@H](NC(=O)[C@@H]1CSSC[C@H](NC(=O)[C@@H](Cc2ccccc2)NC(=O)CN2CCCN3CCN(CCCN(CC(=O)O)CC3)CC2)C(=O)N[C@@H](Cc2ccc(O)cc2)C(=O)N[C@H](Cc2c[nH]c3ccccc23)C(=O)N[C@@H](CCCCN)C(=O)N[C@@H]([C@@H](C)O)C(=O)N1)C(=O)O [copper-64 labelled],"female C.B.17 SCID mouse, MCF7 xenograft",tumour,intravenous,185 kBq,4 h,intratumoral saline control,1.04 ± 0.21 %ID/g
CCCC[C@H](NC(=O)COCCOCCNC(=O)CN1CCN(CC(=O)O)CCN(CC(=O)O)CC1)C(=O)N[C@H]1CC(=O)NCCCC[C@@H](C(N)=O)NC(=O)[C@H](Cc2c[nH]c3ccccc23)NC(=O)[C@H](CCCNC(=N)N)NC(=O)[C@@H](Cc2ccccc2)NC(=O)[C@H](Cc2c[nH]cn2)NC1=O [copper-64 labelled],C57 mouse,"lung, bone and spleen",intravenous,0.37 MBq,2 h,,< 0.7 %ID/g
CSCC[C@H](NC(=O)[C@H](CC(C)C)NC(=O)[C@H](Cc1c[nH]cn1)NC(=O)CNC(=O)[C@@H](NC(=O)[C@H](C)NC(=O)[C@H](Cc1c[nH]c2ccccc12)NC(=O)[C@H](CCC(N)=O)NC(=O)CCOCCOCCOCCOCCNC(=O)CN1CCN(CC(=O)O)CCN(CC(=O)O)CCN(CC(=O)O)CC1)C(C)C)C(N)=O [indium-111 labelled],"Swiss nu/nu mouse, male, PC-3 tumour xenograft",pancreas,intravenous,10 pmol,1 h,,20.8 ± 3.9 %ID/g
CCCC[C@H](NC(=O)CNC(=O)CNC(=O)CN1CCN(CC(=O)O)CCN(CC(=O)O)CC1)C(=O)N[C@H]1CC(=O)NCCCC[C@@H](C(N)=O)NC(=O)[C@H](Cc2c[nH]c3ccccc23)NC(=O)[C@H](CCCNC(=N)N)NC(=O)[C@@H](Cc2ccccc2)NC(=O)[C@H](Cc2c[nH]cn2)NC1=O [technetium-99m labelled],C57 mouse,tumor,iv,0.037 MBq,2 h,,19.8 ± 3.62 %ID/g
CC(C)[C@H](NC(=O)[C@@H]1CCCN1C(=O)[C@H](CCCNC(=N)N)NC(=O)[C@H](CS)NC(=O)[C@H](Cc1c[nH]c2ccccc12)NC(=O)[C@H](CCCNC(=N)N)NC(=O)[C@@H](Cc1ccccc1)NC(=O)[C@H](Cc1c[nH]cn1)NC(=O)[C@H](CCC(=O)O)NC(=O)[C@H](CS)NC(=O)[C@H](CS)NC(=O)[C@H](CCCCN)NC(=O)[C@@H]1CC(=O)N[C@@H](CCCNC(=N)N)C(=O)N[C@H](Cc2ccccc2)C(=O)N[C@@H](CC(=O)O)C(=O)N[C@H](Cc2ccc(O)cc2)C(=O)N1)C(N)=O [technetium-99m labelled],"C57 mouse, female",intestine,intravenous,0.037 MBq,4 h,,3.18 ± 1.08 %ID
Cc1cc(O)cc(C)c1C[C@H](NC(=O)[C@@H]1CCCN1C(=O)[C@H](CCCNC(=N)N)NC(=O)[C@H](CCCNC(=N)N)N(C)C(=O)[C@@H]1CCCN1C(=O)[C@H](CCCCN)NC(=O)[C@@H](CC(C)C)NC(=O)[C@@H](CC(C)C)NC(=O)[C@@H](CC(C)C)NC(=O)[C@@H](CC(C)C)NC(=O)CN1CCN(CC(=O)O)CCN(CC(=O)O)CCN(CC(=O)O)CC1)C(=O)N[C@H](C(=O)N[C@@H](CC(C)C)C(=O)O)C(C)(C)C [lutetium-177 labelled],CF-1 mouse,liver,iv,370 kBq,24 h,,5.67 ± 0.57 %ID/g
CCCC[C@H](NC(=O)CNC(=O)CNC(=O)CN1CCN(CC(=O)O)CCN(CC(=O)O)CCN(CC(=O)O)CC1)C(=O)N[C@H]1CC(=O)NCCCC[C@@H](C(N)=O)NC(=O)[C@H](Cc2c[nH]c3ccccc23)NC(=O)[C@H](CCCNC(=N)N)NC(=O)[C@@H](Cc2ccccc2)NC(=O)[C@H](Cc2c[nH]cn2)NC1=O [lutetium-177 labelled],"C57 mouse, female",pancreas,intravenous,0.037 MBq,0.5 h,,0.88 ± 0.32 %ID/g
CC(C)C[C@H](NC(=O)CN1CCN(CC(=O)O)CCN(CC(=O)O)CC1)C(=O)N[C@@H](CC(C)C)C(=O)N[C@@H](CC(C)C)C(=O)N[C@@H](CC(C)C)C(=O)N[C@@H](CCCNC(=N)N)C(=O)N[C@H](C(=O)N[C@@H](CCCCN)C(=O)N[C@@H](CCCNC(=N)N)C(N)=O)C(C)C [copper-64 labelled],"CD1 mouse, male",lungs,intravenous,,15 min,"blocked, unlabelled peptide 0.1 µmol",1.7 ± 0.2 %ID/g
Cc1cc(O)cc(C)c1C[C@H](NC(=O)[C@@H]1CCCN1C(=O)[C@H](CCCNC(=N)N)NC(=O)[C@H](CCCNC(=N)N)N(C)C(=O)[C@@H]1CCCN1C(=O)[C@@H](CC(C)C)NC(=O)[C@@H](CC(C)C)NC(=O)[C@H](CCCCN)NC(=O)[C@@H](CC(C)C)NC(=O)[C@@H](CC(C)C)NC(=O)CN1CCN(CC(=O)O)CCN(CC(=O)O)CCN(CC(=O)O)CC1)C(=O)N[C@H](C(=O)N[C@@H](CC(C)C)C(=O)O)C(C)(C)C [lutetium-177 labelled],CF-1 mouse,kidney,iv,370 kBq,24 h,,48.8 ± 9.59 %ID/g
N=C(N)NCCC[C@@H]1NC(=O)[C@H](CCCCNC(=O)CCOCCOCCOCCOCCNC(=O)CC[C@H](NC(=O)CCOCCOCCOCCOCCNC(=O)CN2CCN(CC(=O)O)CCN(CC(=O)O)CCN(CC(=O)O)CC2)C(=O)NCCOCCOCCOCCOCCC(=O)NCCCC[C@@H]2NC(=O)[C@@H](Cc3ccccc3)NC(=O)[C@H](CC(=O)O)NC(=O)CNC(=O)[C@H](CCCNC(=N)N)NC2=O)NC(=O)[C@@H](Cc2ccccc2)NC(=O)[C@H](CC(=O)O)NC(=O)CNC1=O [copper-64 labelled],"athymic nu/nu mouse, female",kidney,intravenous,,0.5 h,,6.59 ± 0.93 %ID/g
